# Experimental data gathered from unrelated publications.
# Parts stem from different laboratories: compare values within a part only.

# Series 1 — technique: protein binding microarray; molecule type: double-stranded DNA, one strand shown; matrix: in vitro; concentration: not given; reference: not given; reading: higher = stronger binding
# Target: Histone acetyltransferase KAT6A, winged helix 2, GST fusion (KAT6A, Homo sapiens, UniProt Q92794, residues 85-181)
# Setting: 8-mer, flanks averaged, mean of 2 arrays, mostly near background
# Target sequence (chain): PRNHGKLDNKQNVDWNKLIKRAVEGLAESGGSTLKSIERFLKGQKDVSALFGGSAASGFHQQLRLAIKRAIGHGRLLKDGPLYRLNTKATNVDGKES
Oligonucleotide,E-score
AACACACT,-0.0731
AAAGTTGT,0.072
AAAGAAAA,0.0199
AGAGGGAA,-0.0534
AGTGTGTG,0.152

# Series 2 — technique: protein-binding microarray; molecule type: double-stranded DNA, one strand shown; matrix: in vitro; concentration: 0.8 µM; setting: whole 60-bp probe, no competitor; reading: higher = stronger binding
# Target: Centromere-binding protein 1, full length, N-terminal tag (CBF1, Saccharomyces cerevisiae, UniProt P17106, residues 1-351)
# Chain of UniProt P17106 (whole entry, looked up): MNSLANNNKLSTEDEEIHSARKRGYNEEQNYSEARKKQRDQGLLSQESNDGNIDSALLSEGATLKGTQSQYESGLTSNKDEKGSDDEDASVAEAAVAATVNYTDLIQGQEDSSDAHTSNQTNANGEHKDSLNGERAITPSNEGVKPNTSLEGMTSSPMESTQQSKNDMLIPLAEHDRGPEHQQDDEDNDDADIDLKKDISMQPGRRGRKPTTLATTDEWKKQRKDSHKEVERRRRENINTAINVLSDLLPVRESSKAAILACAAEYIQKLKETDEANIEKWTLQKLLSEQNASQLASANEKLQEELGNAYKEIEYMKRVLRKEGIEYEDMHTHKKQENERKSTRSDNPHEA
Oligonucleotide,fluorescence intensity
GAATTTGGATGCTCTCATATGATTTTCCCTTCTTAGGTCTTGATTCGCTTGACGCTGCTG,501 a.u.
GAATCTTACATATATCAGGCGAAACGGTTATACTAGGTCTTGATTCGCTTGACGCTGCTG,513 a.u.
GAAATTTTTTCTTGTTCTCACGTGGAGTATGCGTAGGTCTTGATTCGCTTGACGCTGCTG,2710 a.u.
CTAAGAAAAGTTGATAACGTCAGGTGGAAAACCTTCGTCTTGATTCGCTTGACGCTGCTG,827 a.u.

# Series 3 — technique: universal PBM; molecule type: double-stranded DNA, one strand shown; matrix: in vitro; concentration: 600 nM; reading: higher = stronger binding
# Target: Sal-like protein 4, full length isoform A (SALL4, Homo sapiens, UniProt Q9UJQ4, residues 1-1053)
# Chain of UniProt Q9UJQ4 (whole entry, looked up): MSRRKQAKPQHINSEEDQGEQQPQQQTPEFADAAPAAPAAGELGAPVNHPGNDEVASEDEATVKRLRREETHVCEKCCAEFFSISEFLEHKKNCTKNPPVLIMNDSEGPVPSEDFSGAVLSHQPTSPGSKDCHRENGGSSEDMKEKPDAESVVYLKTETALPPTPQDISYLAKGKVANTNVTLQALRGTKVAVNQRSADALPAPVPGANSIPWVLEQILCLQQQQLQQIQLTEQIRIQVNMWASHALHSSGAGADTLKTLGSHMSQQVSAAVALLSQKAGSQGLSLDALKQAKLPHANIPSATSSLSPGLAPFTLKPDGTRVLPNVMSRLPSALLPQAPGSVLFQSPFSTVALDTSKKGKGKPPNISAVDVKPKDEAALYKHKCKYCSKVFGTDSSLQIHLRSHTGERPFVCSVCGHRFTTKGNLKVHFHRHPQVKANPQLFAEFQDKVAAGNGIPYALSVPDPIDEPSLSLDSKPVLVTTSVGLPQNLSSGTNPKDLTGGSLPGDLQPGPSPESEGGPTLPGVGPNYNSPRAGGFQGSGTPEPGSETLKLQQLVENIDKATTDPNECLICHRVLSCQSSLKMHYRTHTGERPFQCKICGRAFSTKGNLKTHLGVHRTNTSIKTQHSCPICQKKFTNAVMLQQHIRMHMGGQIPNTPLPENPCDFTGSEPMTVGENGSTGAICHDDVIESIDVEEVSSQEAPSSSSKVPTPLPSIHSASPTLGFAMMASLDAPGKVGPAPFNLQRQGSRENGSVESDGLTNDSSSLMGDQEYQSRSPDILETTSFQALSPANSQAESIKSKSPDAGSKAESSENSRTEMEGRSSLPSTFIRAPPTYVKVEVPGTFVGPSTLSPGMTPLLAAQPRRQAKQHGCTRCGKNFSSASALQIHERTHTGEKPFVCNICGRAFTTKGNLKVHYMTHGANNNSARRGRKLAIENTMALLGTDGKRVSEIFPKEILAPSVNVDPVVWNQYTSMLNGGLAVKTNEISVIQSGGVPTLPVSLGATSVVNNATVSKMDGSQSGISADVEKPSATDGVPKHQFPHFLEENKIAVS
# Setting: 8-mer, flanks averaged, mean of replicates
Oligonucleotide,E-score
AATGCCTG,-0.028
CTTTATGC,0.148
CCTCCGGC,-0.398

# Further values, each from its own experiment
Molecule,target,assay,test system,setting,scale,endpoint,value
"PhoQ, residues 284 288 289 292 302 303 TGYLSA","PhoP, residues 12 14 15 18 19 AQCLL (Escherichia coli, UniProt P23836)","Sort-seq, item: YFP reporter",E. coli,"PhoQ-PhoP variant library, added: 10 µM Mg2+","reference: high Mg2+ state, higher = stronger signaling",fold induction,1.98

# Excerpt of the above (series 1):
Oligonucleotide,E-score
AGAGGGAA,-0.0534
